Results from different studies.
A part holds a random share of what one study measured.

Set 1
Target: RNA binding protein fox-1 homolog 2, RRM domain, GST-SBP tag (RBFOX2, Homo sapiens, UniProt O43251-10, residues 100-194)
Technique: RNA Bind-n-Seq
Form: RNA
Matrix: in vitro
Tested at: 365 nM
Notes: natural RNA segment, single round, ends assumed
Relative to: no-protein control
Reading: higher = stronger binding
Constant ends, left off below: GGGAGUUCUACAGUCCGACGAUC … UGGAAUUCUCGGGUGCCAA
Residues (chain): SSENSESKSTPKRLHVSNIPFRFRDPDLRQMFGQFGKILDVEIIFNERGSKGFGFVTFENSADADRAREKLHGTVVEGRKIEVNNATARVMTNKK
Sequence | RBNS enrichment (R)
AGUUCAGCCUCUCUGUAAUGAAUCAAGAAAUGUAAAAGAGCUUUGAGACCCCAAGGGAAAGGAGAGAGUUGCUUCUCAUUUCUGAUUUUAUUGUGCUGUUACUCUGUCGA | 0.913
UUUUGCUUGGUUUUCAGUGAUAGACAUGGGAUAGCCAAAAGAAGGGACUACCUGAAACCCCUAACUGGGGCGACUGAGCCUGUAGUGUGGUCAGUUCAAAGUUGCAUUUG | 2.05
UGCACGUGGGUCCUUGGAGAUGCGUGACCCAUGUCUCUGGCUGGUAAUGUUGCCUGCAGCCCACAUAAAGUGCAGGCAGGAUCAGAAGUAGCCAAGUAGGUUCACUGAGG | 1.9
UUUUAUUCACAUACAGUGAUGAAUCUUGCAUUGCAAAUUCAAAGUCUAAGUUAACAGUCUCCUAAAGUGACCACCUACAUUUCUUAUAAUCCAGGUAGUUCCUGUCAUGU | 0.324
UCAUCAUUCAUUCAUUCACCUAACUUUCAUUAAAUAGCUGCACCAUCCCAGGCCCUGUGCGGAGCAUCGGGAAUACAAAGAUGAGAUAAAACAUUGUCCCUGCCCCCGGG | 0.448
GUAGCUGGAGCCUCUGGGCUCCUCAGUCCCAUGCAACAUCCCUGGGACCUGGGGAAGGGAUGCUGAGACACAAGCAGGUCUUCUUAGCUCCAUGUUGGGAGAUGUUGGGG | 0.52
UUGAAAUGAUUAGAAAAUGUCAAGUAUUAUAAGCUGGUAUUUAAGAUGCUUGUAAAUACUAUUUAUGUUUUUAAUUUUGUAAAAUAAAGAUUUCUUUUUAACCACUGGCA | 1.07
AUUAUCAGGAGAACCCAAGCUGUCUCUGGAUUCGACACCCUUUAAGACAAAUACCUUGGCUCGGGAGGAGUGGGAACAGGGAGAGACAAAAACCACCACUUCCUGGGGAG | 0.327
GCGUCUUCUGUGACCCUCACUACCUGCACUGCUUGCAUCCCUGCUUUAUGCCUGGUGGCACAUUAUUCACCCGGUAACCUCCAGCUGCUUUGAUCCUGUUUCAGUCAAAG | 2.91
AUCUGCCAAGAGAGAUGUAUGUGUCACUGCAUGGCUUCUGAAAGCAGGAUGAAUUUUCUGCAGCUGUUUCAAAGUUGGGGUCUGUUCUUGAAUCCUCUAUUAAUUACUGU | 0.874
AAUAAACCACAAAUCCACCGUUUCUAUGUAGCUUGUAUUUGUAAAGUCUGAGUUUACCGUCUGAAUGUAAAGUUCCGUGUUGUCCGCUCACGACGGAAGUGAAGAAGAUA | 0.704
UGAUUCAGAGUUAAAAAGAAGACUAACUUUUCAAGCAAAUGCAUCUGUAAAGAUGCUUUAGAUUAGACUGUCAUGUCUCAGUGUCUAUCUGUAUAUAUUAUUUGAUAUUC | 0.301

Set 2
Target: Centromere-binding protein 1, full length, His-tagged (CBF1, Saccharomyces cerevisiae, UniProt P17106, residues 1-351)
Sequence of UniProt P17106 (whole entry, looked up): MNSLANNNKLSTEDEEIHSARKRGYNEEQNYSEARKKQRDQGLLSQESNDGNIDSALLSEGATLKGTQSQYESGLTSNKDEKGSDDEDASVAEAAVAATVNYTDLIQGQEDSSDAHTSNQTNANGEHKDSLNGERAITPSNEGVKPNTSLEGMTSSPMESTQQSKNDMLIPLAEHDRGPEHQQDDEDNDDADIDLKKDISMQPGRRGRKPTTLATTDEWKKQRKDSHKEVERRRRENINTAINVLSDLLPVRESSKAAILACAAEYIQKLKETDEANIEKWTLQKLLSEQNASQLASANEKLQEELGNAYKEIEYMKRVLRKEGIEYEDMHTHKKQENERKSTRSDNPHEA
Technique: competition protein-binding microarray
Form: double-stranded DNA, one strand shown
Matrix: in vitro
Tested at: 2 µM
Notes: whole 60-bp probe, lowest competitor level
With: Pho4 competitor, 0.05 µM
Reading: higher = stronger binding
Constant ends, left off below: … GTCTTGATTCGCTTGACGCTGCTG
Sequence | fluorescence intensity [a.u.]
AACCTTACAAAAAATCACATGACAACCTAACAAAAT | 1740
AAGATAAAAAACGGAAACGTGCTTTTTTAATTTAAT | 248
AAAGCGGTAATTTGACGGGTGGGTGCAGATATCTAT | 83.7
CGTCCTAGTGATTTTCACGTGCGTTCCATGAGGAAG | 871
AAAGCGGTAATTTGCACTGTGGGTGCAGATATCTAT | 85.5
GCGTAGACGGATTTGCACGATGCGATGATAAATATT | 71.3
CTAACGAAGGTTTGCTTAGTGGGTGACAAGCCAAGT | 73.9
GCCCATTAAAAATAATATGTGTGAGCTTCTTCCACA | 76.6
AAAGCGGTAATTTTTCACGTGTCGTCAAATATCTAT | 1690
CTAACGAAGGTTTGTGCCGTGGGTGACAAGCCAAGT | 64.6
TATAGGGCTCTGAGTCTCGTGGTCGAGGAATCCGGC | 148
TCGAACAGCCAAGTTTGCGTGGTTACAAGATAAAAT | 73.7
GAAATAAAGGGAACACACGTGAAATTGAAGGACAGC | 754
AGACCAGATGGTCTTCACGTTATCAATGTTGGTAAG | 134
ACTCTTTCGCTAGTCCATGTGATTCTTTGAGAGTTT | 403
AAAGCGGTAATTTGCTTCGTGGGTGCAGATATCTAT | 78.1
TCTTAAAGTGTTCGGCACGCAAGATACCACCTAGGG | 58.1

Set 3
Target: Histone acetyltransferase KAT6A, winged helix 2, GST fusion (KAT6A, Homo sapiens, UniProt Q92794, residues 85-181)
Technique: protein binding microarray
Form: double-stranded DNA, one strand shown
Matrix: in vitro
Tested at: not given
Notes: 8-mer, flanks averaged, mean of 2 arrays, mostly near background
Relative to: not given
Reading: higher = stronger binding
Residues (chain): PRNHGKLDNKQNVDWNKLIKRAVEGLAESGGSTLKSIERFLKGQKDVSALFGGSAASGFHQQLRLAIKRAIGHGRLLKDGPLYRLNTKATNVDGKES
Sequence | E-score
TCTAGTCA | -0.188
GCATCCGC | 0.119
AGGTTGTG | -0.0358
ACCGTACA | -0.147
GAAAGGAA | -0.00291
AGGTAGCC | 0.00126
GTAACTAA | 0.0511
GACGGAGC | -0.00703
AGCCTCCA | 0.0656
CATCCCAA | 0.0733
ACGGTTTA | -0.0829
GCAGAAAC | 0.185
ATATCTAC | -0.0882
ACGCGCAG | 0.119
GAGACGAA | 0.182
AACGGCGC | 0.122
GGTCGGAC | -0.057
CAAAGCCA | -0.0607
CATTCTAA | 0.051
AAGAACGA | 0.155
GCTTCAGA | -0.0274
ACTGCGAA | 0.0699
AACGAACG | 0.0725
ACCTGCCC | 0.181
CTTAAAGC | 0.0852

Set 4
Target: RING finger protein unkempt homolog, zinc fingers 1-6, GST-SBP tag (UNK, Homo sapiens, UniProt Q9C0B0, residues 30-357)
Technique: RNA Bind-n-Seq
Form: RNA
Matrix: in vitro
Tested at: not given
Notes: RNA with constant flanks, human and mouse sites, ends assumed
Relative to: input RNA pool
Reading: higher = stronger binding
Constant ends, left off below: GGGAGUUCUACAGUCCGACGAUC … CAACAGAGGAUUGAGCAUCA
Residues (chain): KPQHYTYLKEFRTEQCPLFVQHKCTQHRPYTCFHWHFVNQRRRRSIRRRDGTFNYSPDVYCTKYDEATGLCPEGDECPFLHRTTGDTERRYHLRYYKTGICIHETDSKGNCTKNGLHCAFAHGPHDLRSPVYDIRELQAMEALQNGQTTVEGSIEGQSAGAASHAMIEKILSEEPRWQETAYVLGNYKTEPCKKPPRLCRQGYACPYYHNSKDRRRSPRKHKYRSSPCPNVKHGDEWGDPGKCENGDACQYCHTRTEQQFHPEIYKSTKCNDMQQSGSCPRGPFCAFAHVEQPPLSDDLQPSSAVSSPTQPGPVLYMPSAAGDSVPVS
Sequence | bound/input enrichment [ratio]
ACCCUCAUCAACAUCCCGUCAUUAAAUGACAGUGACUCAGAAAUAGAAGAUAUUUCAGAAAUAGAGUCAAACCGAUCAUUUUCUCCAGAGGAGAGACGUCAUCAGUAUUCUGAUUAUGAU | 0.124
CCCUGGGGUAUGACGUGGCAUGGGGGAGCAAGCAGUCCAGGGGACCUCUUGGAAACAGCAUUAGGCUUUUUCCCUUUUCAGUAACAUUGUUCGGAACUACUUGUCAAUGUGUUUGAGGUG | 0.366
UAGCGCCAUCUCAAAGGCCAUCUUUCCACCCUGGCAUGUGGCUAGGGUGUGUCCUGGAUCCAUAGGGUGGGAGGAGGAGCCAGAUGGGUUUAUGAUACAUGGCUGUUUGAGAGUUCCCAU | 0.0646
UUUGGGUGGUAUUGAUGGAGCGGUGGAUUUUCCUCCAAGUGGCUAAAUGCAAUUUGACAUACUUUUCAUCCAAAGUUUUGUACAUCCUGUUGUUUUCUAAUGGAAAAAAAAAUGUUAAUA | 0.259
ACCAAGGAGUCUGAUUGCAGGAAGGGAAGAGCAUGUAAGAAAUAAGUUUUUUUAAAGUGUUAUUUUGUAUAAAUGGGAAGAAAGAUUCAAUUAAGUUAUUAACAUUUGGGACCUGGAUAA | 0.939
AGCAUGAAGCUGUUCGAUAGCAUCUGUAACAACAAGUGGUUUACAGACACGUCCAUCAUCCUUUUCCUCAACAAGAAGGACCUCUUCGAAGAAAAAAUAAAAAAGAGCCCCCUCACGAUA | 0.317
UUUUUUCAGUUUAUAUUAAUCUACUGUAUCAAUAAAAUUCUGUAAUUUGAAUGGGCUUUUAAUAGUCUAGAAUGUUAUUGUGUAUAGAUAUUACUUCUUGAACAUUAUGUUCAGAAAUGC | 2.24
UGUGGCUUUAACAUUUUCUGCAACUAUUUAUGAAGACUUCUGUUAUACAUGUAAUAAAUAUAUAGAAAAAGCACAUACUUCGCAAGUGAGCUUUAUGGUUCUGUGUGUGUUGGGGGUGGG | 1.22
AGCACAACCCCAGCAAAGCUAAGAAAUCCUUGUACAAGUGAACAAAACUGCACCAGCCCAUUUAGCUACAAAAAUGUGCUUAGUCUUACUGACAGAGGAGAGUUUUUCAAUGAACUUGUU | 0.576
UGUGCAUUGGGUUAAAAACGACAACCAACAUCAGCCAUGAAAGAUCCAAGUCGCAGCAGUACUAGCCCAAGCAUCAUCAAUGAAGAUGUGAUUAUUAACGGUCAUUCUCAUGAAGAUGAC | 0.155
AGGUUUCAUUUUAAAACAAAGUUUUCCAGUGUUAAUCUGAUCUUAUAACACCUCUCCCUGUCCUCUGUGGUUUUGUAGAGGUGGAUGAAGGUUGCUAGAGAUCAUGUCUAACAUGUUAAA | 0.216
